Results of several laboratories.
Numbered parts are unrelated; each lists some results of a single study.

Study 1
Target: Phosphate system positive regulatory protein PHO4, full length, GST-tagged (PHO4, Saccharomyces cerevisiae, UniProt P07270, residues 1-312)
Method: competition protein-binding microarray
Molecule type: double-stranded DNA, one strand shown
Sample: in vitro
Tested at: 2 µM
Setting: whole 60-bp probe, lowest competitor level
With: Cbf1 competitor, 0.05 µM
Direction: higher = stronger binding
Construct (chain): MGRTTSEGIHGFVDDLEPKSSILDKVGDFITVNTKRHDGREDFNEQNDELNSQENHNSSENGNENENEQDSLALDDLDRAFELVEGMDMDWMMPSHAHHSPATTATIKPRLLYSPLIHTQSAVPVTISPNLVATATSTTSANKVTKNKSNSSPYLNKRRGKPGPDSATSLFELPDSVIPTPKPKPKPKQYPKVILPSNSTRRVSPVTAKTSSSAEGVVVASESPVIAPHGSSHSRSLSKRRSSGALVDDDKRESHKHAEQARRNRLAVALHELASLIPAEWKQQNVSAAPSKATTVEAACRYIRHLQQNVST
Strand | fluorescence intensity [a.u.]
AAATTACTAAGTTTTCACGTGCTATACCCCGTATGAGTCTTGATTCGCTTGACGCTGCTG | 15000
CATACCCAACCTTGACTCGTGGGTGAAGATATTTGTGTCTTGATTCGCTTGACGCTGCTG | 10500
GTCTTGTCTCATTGTCACCGCACTTTCCCCACTTCAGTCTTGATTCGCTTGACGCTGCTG | 4590
TGAAGAGTGTTGTTTCATGTGACAGTGAATGCCATTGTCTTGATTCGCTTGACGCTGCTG | 5000
TGCGCAACAACTTGAATGGTGGGTGTATGTCTAGAAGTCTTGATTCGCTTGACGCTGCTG | 4760
TGAACGAAAGACCTGCGCATGACAACAAATTTACCGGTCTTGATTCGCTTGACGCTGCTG | 7030
CTTCTGTAAATTTGACTTGTGGGTGGACGCGCCCCGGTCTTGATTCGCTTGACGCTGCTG | 4670
CTAACGAAGGTTTGTCACTTTACTTACAAGCCAAGTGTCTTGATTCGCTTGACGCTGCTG | 3010
ATCATCATACATTTGCACGTGGCCGTTACATTTTTCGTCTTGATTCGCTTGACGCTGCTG | 19700
CAGAGTGGTTTATGTCAGGTGGTATTGCCTTGGATCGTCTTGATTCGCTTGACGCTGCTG | 5110
GATTTTGGCCGCTGGCACGTGCAGTTTCTATTAACTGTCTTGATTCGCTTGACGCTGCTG | 18400
AAATTACTAAGTTTTCACGTGTTGTACCCCGTATGAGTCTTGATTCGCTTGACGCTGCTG | 15100
CTTAATTGCCGGCTCCTCGTGGTGAGATAAAATGAAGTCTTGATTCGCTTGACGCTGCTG | 14000
CTTTCCCGATCTTGCTCTGTGGGTGTAGCACATTTGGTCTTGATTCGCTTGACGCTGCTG | 4160

Study 2
Cell line: yeast with cyclin A1-Cln2 chimera
Effect on: cell growth
Mode: binder
Method: competitive growth deep sequencing
Molecule type: peptide
Tested at: concentration not given
Setting: peptide tiling library
Direction: direction not given
Molecule | growth enrichment score
TTTTSPRTPPPLTVQD | -0.072
SPPRGRRLFPPGPAGF | -0.602
PFSENVSAVQKLDFSD | 0.696
NEGVSNAVRRSLYIRD | 0.19
RVSGLLSWTLSRVLWL | 0.722
KSKHEEEEWTDDDLVE | 0.196
NSMKELNFSHLPSNSV | 0.29
RQVRRDLFAF | 0.0871
RRRIKLPESDSSED | 0.424
VKTKKRLNFDDK | 0.233

Study 3
Target: RNA binding protein fox-1 homolog 2, RRM domain, GST-SBP tag (RBFOX2, Homo sapiens, UniProt O43251-10, residues 100-194)
Method: RNA Bind-n-Seq
Molecule type: RNA
Sample: in vitro
Tested at: 365 nM
Setting: natural RNA segment, single round, ends assumed
Reference: no-protein control
Direction: higher = stronger binding
Construct (chain): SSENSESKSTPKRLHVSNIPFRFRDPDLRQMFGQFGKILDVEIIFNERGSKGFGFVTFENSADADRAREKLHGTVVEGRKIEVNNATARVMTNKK
Strand | RBNS enrichment (R)
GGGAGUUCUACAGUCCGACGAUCCACAGUUAUGUUUCCAUUGUAAUUUCUAGGUUCCUCACAAAAAUCUAUUUCAGUGCUGUAGCUGUUAGUUUUAAGUGAGUGCUAAAGUUCUUUUAAAAGUACACAGAAUUUGGAAUUCUCGGGUGCCAA | 0.717
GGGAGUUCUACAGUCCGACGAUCCUUCUAGCCAAUCACGCUCUGGACCAGCAUGUUGGAAUCCAGUGUGGGGCAAAUGCAGUAAAGAUUUUUCCGUUUCUGUAUGAGUUGUUCCUUCAGUCCCUUCCUCCCGCUGGAAUUCUCGGGUGCCAA | 12.1
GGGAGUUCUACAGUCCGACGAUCGUCUUUGUGGAUUAGGAUGGGGGUGACAUAAUUUUCUUGAGUUUAACAGGAGUGCUUUACCCAAGUCAGUCAUGGAUAUGAUAUCACUGCUCUUUAUUUAAAAGUAAACUUGGAAUUCUCGGGUGCCAA | 0.694
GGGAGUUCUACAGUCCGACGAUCUCAAAGAGAGGUAUAGGGGCUUUUUACUGCCUUCGAAAUCACUUUUAAUAAAAGUUGUAUGAUAAAUCAUUAAAAAUGCGAGUGUAAAUAUUUUUUUUUACCUCUAUCAGUGGAAUUCUCGGGUGCCAA | 0.539
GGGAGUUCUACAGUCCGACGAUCAGCUUGUUACGUGAAUUCAACAAGCUGUCUUCUUAACGGGAGCCCUCAUUCUGGUUUAUUUAUUAUGAACUUCCAAGUUAUUUAAAUGAAGAUUUCCUUCUGCAGUAUUUUGGAAUUCUCGGGUGCCAA | 0.32
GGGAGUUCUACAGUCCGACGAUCCUCUUCCUUCUGCUGUGUUCCUAUAGCCACUGGGCUAAUCUCCCCCUUGCUUUAGGCUGUAUAUAGCCCCCCCCAACCCCCCAGCACAGAUCCCUGCCCAUGCUGUUCCCUGGAAUUCUCGGGUGCCAA | 0.879
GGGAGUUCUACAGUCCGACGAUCAACCAAAAUGAGCCCACCUUGUGUUCUUCCUAGCUCCACCCUCCCCGUGCUGCUGUGUUCUGCUCCUCCCCACGCUUCCCUGCUAUAGUUCCCAGCUGCUGUAACGGAGCUGGAAUUCUCGGGUGCCAA | 0.533
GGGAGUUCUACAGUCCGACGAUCCCUGCUGUGUGUCGGCCUUAUUAUUGUGACCAUCCUGCUGCUCCAGACUGCCUUCCCGGGAUUUCUCUAACCUCUAGAGCGAUGGGAAUCAGCCUUGGACAGUGCCGCCUUGGAAUUCUCGGGUGCCAA | 0.228
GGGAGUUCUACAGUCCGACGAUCCCCUGCUCUGGCCCUGCCCCAGAGCUGUGACCCUUGUCCUUUGACCCAGCCUCUCAUUUCCAUCUCUCCAGACACUGCUCCUUCACCCUCACUGCCACCGGUCCAGCUCCUGGAAUUCUCGGGUGCCAA | 0.837
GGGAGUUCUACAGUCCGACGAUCAGAAGGGUGAUUAUGAGUGGUUCACAGCAGCCCUUAUAAGCUGGGCCAGAAAAUUUCACUAGGUCAGUAAUUUAAACCUUGGAUCUUCAAAAAAUAAAAUAAUGUGAAGCUGGAAUUCUCGGGUGCCAA | 0.559
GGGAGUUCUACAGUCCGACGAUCGAGUCACUUCCAGUCCUCCUCAGAGGAUGUGAUGGUGGUAGGAGAGCCAACUCUGAUGGGAGGUGAGUUUGGGGACGAGGACGAAAGGCUAAUCACUAGAUUAGAAAACAUGGAAUUCUCGGGUGCCAA | 1.73
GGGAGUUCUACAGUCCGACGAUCGCUGAAAUACUGAAUACUGAAAUACUAGAAACCAACAAAACUGGUUUCUAGAAUUCUCCAGGGAUUUGGGCUUGGGAAACUUGGUAAGAAUAGUUUUUAUUUUUGAACAUUGGAAUUCUCGGGUGCCAA | 0.515

Study 4
Target: RING finger protein unkempt homolog, zinc fingers 1-6, GST-SBP tag (UNK, Homo sapiens, UniProt Q9C0B0, residues 30-357)
Method: RNA Bind-n-Seq
Molecule type: RNA
Sample: in vitro
Tested at: not given
Setting: RNA with constant flanks, ends assumed
Reference: input RNA pool
Direction: higher = stronger binding
Target sequence (chain): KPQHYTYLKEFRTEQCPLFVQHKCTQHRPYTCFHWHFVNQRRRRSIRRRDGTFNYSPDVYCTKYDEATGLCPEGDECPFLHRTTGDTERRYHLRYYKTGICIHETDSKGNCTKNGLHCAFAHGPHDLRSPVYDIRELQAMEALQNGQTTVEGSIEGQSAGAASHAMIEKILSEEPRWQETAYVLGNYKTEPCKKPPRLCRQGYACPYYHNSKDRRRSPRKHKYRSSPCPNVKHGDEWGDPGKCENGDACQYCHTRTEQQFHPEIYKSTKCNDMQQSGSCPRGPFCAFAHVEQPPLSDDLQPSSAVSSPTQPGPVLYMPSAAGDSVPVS
Strand | bound/input enrichment
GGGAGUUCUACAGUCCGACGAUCGGCAUCGCGGGCUGUGGAACCCUACUAAUAUUGGAUCCAGAUGAAGCUGGGCUAAGGCUUUUCCGAAGCUUUGACUGGAAUGAUGGUUUGUUUGAUGUGACUUGGAGUGAGAACAACGAACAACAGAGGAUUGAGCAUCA | 0.134 ratio
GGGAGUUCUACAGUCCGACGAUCCUUCUCAUGACCAACUGUAUCAAGAAUGAUCUUAAUCAUAGCACGCAAUUCGUACAGGGGUCCGCACUUUGUACCCUCGGCUGCAUGGGCUCCUCAGAGAUGUGCAGAGAUCUUGCAGGACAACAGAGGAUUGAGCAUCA | 0.124 ratio
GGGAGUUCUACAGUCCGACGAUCAACAGCUCUCUCCUUCCUCGUUACUGCAAAUUGAUUGUUUCCCUUUCCUGGUACCAUAAUCUCCGAGGCAAACUUUGAGACAGGUGUUUUGAGGCUCUUCCUGUACUCUUAGGAUAUAUGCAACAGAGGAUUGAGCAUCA | 1.25 ratio
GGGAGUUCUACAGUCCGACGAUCAAGCCUGGAAAACCCAAGGGCAAGAAAAAGCUUUCUUCUGUUCGUCAAAAAUUUGAUCACCGGUUCCAGCCUCAGAACCCCCUCUCUGGAGCUCAGCAGUUCGUGGCAAAGGAGCCCCAGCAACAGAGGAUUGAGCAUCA | 0.166 ratio
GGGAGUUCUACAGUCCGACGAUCUCGUUUGGGUCACCAGGCUUCCCAGUGAAUAACAGCAGCAGCAGUACUGUUCAGAACUUCCGUUUUAAAACAAGCCCUGGACUUGCCACUCCUCCUUCCGGAAGCACUUCAGUAUUUGGACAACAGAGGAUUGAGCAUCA | 0.179 ratio
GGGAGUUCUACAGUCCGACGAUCAAGUGUGUUUCCACUCAAAGAAAGAAAAGGUUCACGAAGAACAUAAAUGCUGGCUUUUCCCUCCGCCCCAAUAUCAGUAAACAUCUGGCCAGCCUAUCAGUGGUUGGAAACAGGAGUCCCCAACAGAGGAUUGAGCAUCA | 0.328 ratio
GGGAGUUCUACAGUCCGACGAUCGUAGAUGGAACUUUUCUAGUGUGGCAUGUAAAGUAUUUGGAUGAAUAUAACCCUGGAAUAUUCCGACAAGUUCAGGUUUCUUUUUCCUCUCGGAUUCCUGUUGCAUUUCCCUCUGGGGACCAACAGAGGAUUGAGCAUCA | 0.572 ratio
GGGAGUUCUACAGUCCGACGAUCCGACAUGUCCUCACCUACAUGGAGGAUGCAGUGUGCCAGCUGCUAGAAAACAGGGAAGAUAUCCGCCAAUAUGGAAUUGCCAGGUUCUUCACUGAAUAUUUUAACAGUGUAUGCCAGGGACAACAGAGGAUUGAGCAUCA | 0.112 ratio
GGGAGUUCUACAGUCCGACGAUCUACGGCAAAGGCAAGAGUAACAGCAGCGCCGUCCCGUCCGACAGCCAGGCCCGGGAGAAGUCCGCACUCUACGUGUAUGAAUAUCUGCUCCAUGUAGGAGCUCAGAAAUCGGCUCAGACACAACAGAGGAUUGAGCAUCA | 0.051 ratio
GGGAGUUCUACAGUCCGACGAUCAUUAGUGUUAUUUAUGGCUAGAAAAGCAUGCUUCUAUUUAAGCUGUAAAAAGGAUUGUCGAACCGUUACUGUAAAUAUAUGUUGACAUAGUAAAGCUUGGAAUGUCUUAUGUCCCUGGUGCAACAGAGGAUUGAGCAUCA | 1.21 ratio
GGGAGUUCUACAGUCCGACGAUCUACAUGAUGAAAGCGUUCGACCUCAUCGUGGACCGACCCGUGACCCUCGUGAGAGAAUUUACCGAGCGGCAGCACGCAAAGAACAGGUAUUACUACUACCACCGGCAGUACCGCCGCGUGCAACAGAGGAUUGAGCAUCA | 0.0759 ratio

For quick reference, copied from above (study 2):
Molecule | growth enrichment score
VKTKKRLNFDDK | 0.233
KSKHEEEEWTDDDLVE | 0.196
RRRIKLPESDSSED | 0.424
NSMKELNFSHLPSNSV | 0.29
